Measured values collected from several papers.
± gives the spread as reported.
Cell line: HCT-116

| SMILES | effect on | technique | time | notes | IC50 |
| --- | --- | --- | --- | --- | --- |
| Cc1ccc(NC(=O)N/N=C2\CC3(CCN(C)CC3)Oc3ccccc32)cc1 |  |  | 48 h |  | 7.75 ± 0.33 µM |
| CC(C)c1ccc2c(c1)CCC1[C@](C)(C(=O)OCCSc3nccc(O)n3)CCC[C@]21C (stereo partly shown) | cell growth or viability | MTT | 48 h |  | 9.53 to 19.4 µM |
| N#Cc1c(F)c(Cl)c2nc(SCC3CCCO3)nc(N)c2c1F (stereo not shown) | cell growth or viability | MTT | 96 h |  | 4.39 µM |
| CN1CCN(c2ccc(Nc3nccc(-c4cn(C5CCCCC5)nn4)n3)cc2)CC1 | cell growth or viability | SRB | 72 h |  | 7.96 µM |
| O=C(NCCNc1n[n+]([O-])c2ccccc2[n+]1[O-])C(F)(F)F | cytotoxicity | MTT | 24 h | hypoxia | 33.8 µM |
| CN(C)CCCS(=O)(=O)NC12CCCC(C)(CCC3C1CC3(C)C)C2 (stereo not shown) | cell growth or viability | CCK-8 | 72 h |  | 28.1 µM |
| Cc1cc(C)c([N+]#[C][Pt-2]([Cl])([Cl])[C]#[N+]c2c(C)cc(C)cc2C)c(C)c1 | cell growth or viability |  |  |  | 1 µM |
| O=C(NNc1nc(-c2ccccc2)cs1)c1cc2c(ccc3ccccc32)oc1=O | cell growth or viability | SRB | 72 h |  | 76.9 µM |
| CCCN1CCN(CC(=O)N2CCN(c3cc(C)nc4ncnn34)CC2)CC1 | cell growth or viability | MTT |  |  | 62.6 µM |
| CSc1nc(Nc2ccc(/C(C)=N/NC(=O)c3ccccc3)cc2)c(C#N)c(-c2ccccc2)n1 | cell growth or viability | MTT | 48 h |  | 23.6 µM |
| COc1cc(C2COc3cc(O)cc(O)c3C2=NO)c(OC)cc1O (stereo not shown) | cell growth or viability | MTT | 72 h |  | 82.6 µM |
| OC[C@H]1[C@@H](O)[C@@H](O)CN1Cc1ccc(Br)cc1 | cell growth or viability | MTS | 72 h |  | > 200 µM |
| CC(C)Cn1cc(-c2ccnc(Nc3ccc(OCCCCCCC(=O)NO)cc3)n2)nn1 | cell growth or viability | SRB | 72 h |  | 1.96 µM |
| COc1cccc2c(=O)c3c(NCCCCCCC(=O)Nc4ccccc4N)ccc([N+](=O)[O-])c3[nH]c12 | cell growth or viability | MTT | 72 h |  | 21.1 µM |
| CO[C@@H]1[C@@H](O[C@@H]2O[C@H](C)[C@@H](O[C@H]3C[C@@](C)(O)[C@@H](OC(=O)C4CCCCC4)[C@H](C)O3)[C@H](N(C)C)[C@H]2O)[C@@H](CC=O)C[C@@H](C)[C@@H](O[C@H]2CC[C@H](N(C)C)[C@@H](C)O2)/C=C/C=C/C[C@@H](C)OC(=O)C[C@H]1O | cell growth or viability | CCK-8 | 72 h |  | 13 µM |
| O=C(Cn1c(=O)c(Cc2ccccc2)nc2ccccc21)NN1C(=O)c2ccccc2C1=O | cell growth or viability | MTT | 72 h |  | 0.063 µM |
| C=CCSc1nc(N)c2c(F)c(C#N)c(F)c(Cl)c2n1 | cell growth or viability | MTT | 96 h |  | 5.02 µM |
| CCOC(=O)c1ccc(NC(=O)CCc2nc3cc(Cl)ccc3[nH]c2=O)cc1 | cell growth or viability | MTT |  |  | 36 µM |
| CC(=O)O[C@H]1CC[C@]2(C)[C@H]3CC=C4[C@@H]5[C@@H](C)[C@H](C)CC[C@]5(C)CC[C@@]4(C)[C@]3(C)CC[C@H]2C1(C)C | cell growth or viability | resazurin | 96 h |  | 4.07 µg/mL |
| Cc1ccc(C(=O)C2Sc3nnc(-n4nc(C)cc4C)n3NC2c2ccc(Cl)cc2)cc1 (racemic) | cell growth or viability | imaging | 72 h |  | > 100 µM |

| SMILES | effect on | technique | time | notes | IC50 |
| --- | --- | --- | --- | --- | --- |
| Cc1cc(C)c(N[C](NCc2cccc(N[C](Nc3c(C(C)C)cccc3C(C)C)=[Pt-]([Cl])([Cl])[C]#[N+]c3c(C(C)C)cccc3C(C)C)c2)=[Au][Cl])c(C)c1 | cell growth or viability |  |  |  | > 100 µM |
| COc1ccc(-c2c(C#N)c(N)n(-c3nnc(NC(=O)c4ccccc4)s3)c(=O)c2C#N)cc1 | cell growth or viability | MTT | 48 h |  | 29.2 µM |
| CC1CN(C(=O)c2cn(C34CCCC(C)(CCC5C3CC5(C)C)C4)nn2)CCN1 (stereo not shown) | cell growth or viability | CCK-8 | 72 h |  | 16.3 µM |
| CSc1nc(Nc2cccc(/C(C)=N/NC(=O)c3ccccc3)c2)c(C#N)c(-c2ccccc2)n1 | cell growth or viability | MTT | 48 h |  | 18 µM |
| CCCCCCCC(=O)O[C@H]1[C@H](C)O[C@@H](O[C@H]2[C@H](N(C)C)[C@@H](O)[C@H](O[C@H]3[C@@H](CC=O)C[C@@H](C)[C@@H](O[C@H]4CC[C@H](N(C)C)[C@@H](C)O4)/C=C/C=C/C[C@@H](C)OC(=O)C[C@@H](O)[C@@H]3OC)O[C@@H]2C)C[C@@]1(C)O | cell growth or viability | CCK-8 | 72 h |  | 10.6 µM |
| COCCSc1nc(N)c2c(F)c(C#N)c(F)c(Cl)c2n1 | cell growth or viability | MTT | 96 h |  | 6.94 µM |
| Cc1cc(C)c([N+]#[C][Pd-]([Cl])([Cl])=[C](Nc2cccc(CN[C](NC(C)(C)C)=[Au][Cl])c2)Nc2c(C)cc(C)cc2C)c(C)c1 | cell growth or viability |  |  |  | 5.2 µM |
| Cc1c(C)c(C)[c-](C)c1C.Fc1c[c-]c(-c2ccccn2)cc1.[Cl-].[Ir+3] |  | SRB | 24 h | 72 h recovery | 6.8 ± 0.1 µM |
| Fc1ccc(-c2cn(CSc3ccccc3)nn2)c(F)c1 | cell growth or viability | MTS | 72 h |  | 20.5 µM |
| CSC(=S)N/N=C(\C)c1ccc(S(=O)(=O)N2CCC(C)CC2)cc1 | cell growth or viability | MTT |  |  | 5.58 µM |
| NC1=N[N+](=Cc2c3ccccc3cc3ccccc23)[Ga-3]23([S]1)([S]C(N)=N[N+]2=Cc1c2ccccc2cc2ccccc12)[S]C(N)=N[N+]3=Cc1c2ccccc2cc2ccccc12 |  |  | 72 h |  | 13.1 ± 1.2 µM |
| CO[C@@H]1[C@@H](O[C@@H]2O[C@H](C)[C@@H](O[C@H]3C[C@@](C)(O)[C@@H](OC(=O)NC4CCCCC4)[C@H](C)O3)[C@H](N(C)C)[C@H]2O)[C@@H](CC=O)C[C@@H](C)[C@@H](O[C@H]2CC[C@H](N(C)C)[C@@H](C)O2)/C=C/C=C/C[C@@H](C)OC(=O)C[C@H]1O | cell growth or viability | CCK-8 | 72 h |  | > 50 µM |
| CCn1c(-c2ccccc2)cs/c1=N/N=C(\C)c1c(O)c2ccccc2oc1=O | cell growth or viability | MTT | 48 h |  | 9.9 µM |
| C#CCN(CC(=O)O[C@H]1[C@H](C)O[C@@H](O[C@H]2[C@H](N(C)C)[C@@H](O)[C@H](O[C@H]3[C@@H](CC=O)C[C@@H](C)[C@@H](O[C@H]4CC[C@H](N(C)C)[C@@H](C)O4)/C=C/C=C/C[C@@H](C)OC(=O)C[C@@H](O)[C@@H]3OC)O[C@@H]2C)C[C@@]1(C)O)Cc1ccc(C(F)(F)F)cc1 | cell growth or viability | CCK-8 | 72 h |  | 4.39 µM |
| O=C(NCCCCCCCCNc1n[n+]([O-])c2ccccc2[n+]1[O-])C(F)(F)F | cytotoxicity | MTT | 24 h | normoxia | 108 ± 21.3 µM |
| COc1ccc(NC(=O)c2c(Nc3ccccc3)sc(C(=O)N/N=C/c3ccc(OC)c(OC)c3)c2NC(C)=O)cc1 | cell growth or viability | SRB | 48 h |  | 5.33 µM |
| COc1cc(OC)c(-c2coc3c4c(c(OC)cc3c2=O)OC(C)(C)C=C4)cc1OC | cell growth or viability | MTT | 72 h |  | 19.8 µM |
| COc1cccc2c1C(=O)c1c(O)c3c(c(O)c1C2=O)CC(O)(C(=O)CO)CC3OC1CC(NC(=O)C[C@H](N)C(=O)O)C(O)C(C)O1 (stereo partly shown) | cell growth or viability | MTT | 48 h |  | < 10 µg/mL |
| COC(=O)[C@H](CC(C)C)NC(=O)CNC(=O)CCn1nc(Cc2ccccc2)c2ccccc2c1=O | cell growth or viability | MTT | 48 h |  | 48.7 µM |
| Cc1cc(C)c([N+]#[C][Pt-]([Cl])([Cl])=[C](Nc2ccc(CN[C](Nc3c(C)cc(C)cc3C)=[Au][Cl])cc2)Nc2c(C)cc(C)cc2C)c(C)c1 | cell growth or viability |  |  |  | 14 µM |

A few entries again:
| SMILES | effect on | technique | time | notes | IC50 |
| --- | --- | --- | --- | --- | --- |
| CC(C)c1ccc2c(c1)CCC1[C@](C)(C(=O)OCCSc3nccc(O)n3)CCC[C@]21C (stereo partly shown) | cell growth or viability | MTT | 48 h |  | 9.53 to 19.4 µM |
| CSc1nc(Nc2cccc(/C(C)=N/NC(=O)c3ccccc3)c2)c(C#N)c(-c2ccccc2)n1 | cell growth or viability | MTT | 48 h |  | 18 µM |
| CCn1c(-c2ccccc2)cs/c1=N/N=C(\C)c1c(O)c2ccccc2oc1=O | cell growth or viability | MTT | 48 h |  | 9.9 µM |
| CN(C)CCCS(=O)(=O)NC12CCCC(C)(CCC3C1CC3(C)C)C2 (stereo not shown) | cell growth or viability | CCK-8 | 72 h |  | 28.1 µM |
| CC1CN(C(=O)c2cn(C34CCCC(C)(CCC5C3CC5(C)C)C4)nn2)CCN1 (stereo not shown) | cell growth or viability | CCK-8 | 72 h |  | 16.3 µM |
| CO[C@@H]1[C@@H](O[C@@H]2O[C@H](C)[C@@H](O[C@H]3C[C@@](C)(O)[C@@H](OC(=O)NC4CCCCC4)[C@H](C)O3)[C@H](N(C)C)[C@H]2O)[C@@H](CC=O)C[C@@H](C)[C@@H](O[C@H]2CC[C@H](N(C)C)[C@@H](C)O2)/C=C/C=C/C[C@@H](C)OC(=O)C[C@H]1O | cell growth or viability | CCK-8 | 72 h |  | > 50 µM |
